Assay results of several laboratories.
Each numbered part is a random draw from the data of one study; scales do not carry over between parts.

Sample 1 — method: protein binding microarray; form: double-stranded DNA, one strand shown; sample: in vitro; tested at: not given; baseline: not given; reading: higher = stronger binding
Target: Histone acetyltransferase KAT6A, winged helix 2, GST fusion (KAT6A, Homo sapiens, UniProt Q92794, residues 85-181)
Notes: 8-mer, flanks averaged, mean of 2 arrays, mostly near background
Construct (chain): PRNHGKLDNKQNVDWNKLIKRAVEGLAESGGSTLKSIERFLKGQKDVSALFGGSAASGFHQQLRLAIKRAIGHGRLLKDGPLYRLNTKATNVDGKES
Strand	E-score
AACATCTG	-0.0769
ATTACACA	-0.0153
ACTAAAAT	0.0866
GGAGAACC	0.0987
AGGCTTTA	-0.194

Sample 2 — method: protein-binding microarray; form: double-stranded DNA, one strand shown; sample: in vitro; tested at: not given; reading: higher = stronger binding
Target: Hepatocyte nuclear factor 3-beta, forkhead domain (FOXA2, Homo sapiens, UniProt Q9Y261, residues 142-269)
Notes: k-mer, scored over probes, only values ≥0.25
Residues (chain): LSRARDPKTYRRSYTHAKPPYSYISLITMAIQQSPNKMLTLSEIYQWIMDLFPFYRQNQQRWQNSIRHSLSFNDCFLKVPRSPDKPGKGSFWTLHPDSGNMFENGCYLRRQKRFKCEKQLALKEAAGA
Strand	E-score
ATTGTACG	0.255
GTATATAA	0.341
AATCATGT	0.277
AGACAACA	0.29

Sample 3 — method: RNA Bind-n-Seq; form: RNA; sample: in vitro; tested at: 365 nM; baseline: no-protein control; reading: higher = stronger binding
Target: RNA binding protein fox-1 homolog 2, RRM domain, GST-SBP tag (RBFOX2, Homo sapiens, UniProt O43251-10, residues 100-194)
Notes: natural RNA segment, single round, ends assumed
Construct (chain): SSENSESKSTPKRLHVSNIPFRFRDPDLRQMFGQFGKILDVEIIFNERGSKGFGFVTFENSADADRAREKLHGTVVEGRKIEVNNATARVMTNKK
Strand	RBNS enrichment (R)
GGGAGUUCUACAGUCCGACGAUCGGUGUUGGGUAGACACUGACAGUUGAGAGGGUCACCAGGGUGCCACUCUAGUGUGAAGUCCUCUUCUAGGGUAUCCUGGUGACUGUGGCUAGCCAAGGGGCCACUUCUUGUGGAAUUCUCGGGUGCCAA	0.344
GGGAGUUCUACAGUCCGACGAUCGCCUCUCCCUAAAGAGCUGCCUCCCUGCUGCCGAGCCCUGGUCUGGCCACGAGCCACCACUGCCUCCCGCUGCUGCCCACAGGUGGUGCCGCCAAUGGGCAGUGCCCUCAUGGAAUUCUCGGGUGCCAA	0.333
GGGAGUUCUACAGUCCGACGAUCUGCGAAUCUCAGAGCAGGAGAAGUUGCAGCUUACUGAUCCCUCAGUGCUCACAGUACUCAUGUGGGGCAGCCACACUAACUGCAUUAGCAGUGUGGUUACUUCUUUCUUCUGGAAUUCUCGGGUGCCAA	0.369
GGGAGUUCUACAGUCCGACGAUCGAUUGGUUGACGUGAGUUGGUUGAGUCUCUGGAGCAUCAGUUUUCAACUUCUGGAUCGCAACCCCUUUGGGGGUGGGUAGGUCACAUAACAGAUAUGCUGACUAACAGAGUGGAAUUCUCGGGUGCCAA	0.525

Single results of other studies
Molecule	target	test	system	conditions	how to read	quantity	value
PhoQ, residues 284 288 289 292 302 303 SVTLVV	PhoP, residues 12 14 15 18 19 SPWRL (Escherichia coli, UniProt P23836)	Sort-seq, item: YFP reporter	E. coli	PhoQ-PhoP variant library, with: 10 µM Mg2+	baseline: high Mg2+ state, higher = stronger signaling	fold induction	2.43

Repeated from above (sample 1):
Strand	E-score
GGAGAACC	0.0987
